Experimental data of several laboratories.
T1: DNA aptamer; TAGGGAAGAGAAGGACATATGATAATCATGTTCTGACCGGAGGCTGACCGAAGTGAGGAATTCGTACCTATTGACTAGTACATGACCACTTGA
T2: pre-miR-21 RNA, U bulge to U-A pair (Homo sapiens); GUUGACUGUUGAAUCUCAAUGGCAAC
T3: DNA aptamer adenosine aptamer, site 1 removed; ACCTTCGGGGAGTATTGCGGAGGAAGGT
T4: DNA aptamer; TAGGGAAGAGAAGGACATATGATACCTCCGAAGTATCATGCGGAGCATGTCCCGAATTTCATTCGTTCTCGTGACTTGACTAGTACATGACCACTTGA
T5: DNA aptamer; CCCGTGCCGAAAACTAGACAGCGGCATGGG
T6: pre-miR-21 RNA, hairpin loop region (Homo sapiens); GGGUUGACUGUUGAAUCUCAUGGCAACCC
T7: DNA aptamer, structure-switching; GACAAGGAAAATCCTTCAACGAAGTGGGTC
T8: RNA G4, bulged parallel (Homo sapiens); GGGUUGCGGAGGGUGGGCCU
T9: DNA aptamer, 8-thienyl-dG at G5; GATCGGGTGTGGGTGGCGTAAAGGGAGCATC
T10: riboswitch RNA 2'-deoxyguanosine sensing domain (Mesoplasma florum); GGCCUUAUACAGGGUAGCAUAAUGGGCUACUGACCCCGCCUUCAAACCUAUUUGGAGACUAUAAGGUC
T11: SNCA 5' UTR IRE RNA A-bulge hairpin (Homo sapiens); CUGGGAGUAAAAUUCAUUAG

target	assay	setting	Kd [µM]	SMILES
T1, DNA aptamer	APAA	NaCl 100 mM	0.00474	C[C@]12CC[C@@H]3c4ccc(O)cc4C(=NOCC(=O)O)C[C@H]3[C@@H]1CC[C@@H]2O
T2, pre-miR-21 RNA, U bulge to U-A pair (Homo sapiens)	microscale thermophoresis		0.23	CN1CCN(c2ccc(-c3ccc4[nH]c(-c5ccc(OCCCC(=O)N6CCN(c7nncc8sccc78)CC6)cc5)nc4c3)cc2)CC1
T3, DNA aptamer adenosine aptamer, site 1 removed	ITC	pH 7.6, 25 °C, Na+ 100 mM, one-site model	12	Nc1ncnc2c1ncn2[C@@H]1O[C@H](CO)[C@@H](O)[C@H]1O
T4, DNA aptamer	bead-ELAA	NaCl 100 mM	0.00044	CC(=O)[C@H]1CC[C@H]2[C@@H]3CCC4=CC(=NOCC(=O)O)CC[C@]4(C)[C@H]3CC[C@]12C
T5, DNA aptamer	interferometric free solution assay	2 h, 22 °C, NaCl 150 mM, single-site fit	0.00904	C[C@H](Cn1cnc2c(N)ncnc21)OCP(=O)(O)O
T6, pre-miR-21 RNA, hairpin loop region (Homo sapiens)	in-line cleavage	pH 8.5, apparent	251	N=C(N)NCCC[C@H](NC(=O)CN(Cc1ccco1)C(=O)CN(CCO)C(=O)CNCc1ccncc1)C(=O)NCC(=O)NCC(N)=O
T7, DNA aptamer, structure-switching	1H NMR titration	500 µM, pH 6.8, 5 °C, KCl 245 mM, apparent	1700	c1ccc([C@H]2CN3CCSC3=N2)cc1
T8, RNA G4, bulged parallel (Homo sapiens)	microscale thermophoresis	pH 7.5, 25 °C, KCl 150 mM, MgCl2 1 mM	0.171	CCN(CC)c1ccc2cc(/C=C/c3ccc4cc(F)c(N5CCN(C)CC5)cc4[n+]3C)c(=O)oc2c1
T9, DNA aptamer, 8-thienyl-dG at G5	fluorescence titration	pH 8.0, 20 °C, K+ 5 mM, with: OTA 3 µM	19.9	C[C@@H]1Cc2c(Cl)cc(C(=O)N[C@@H](Cc3ccccc3)C(=O)O)c(O)c2C(=O)O1
T10, riboswitch RNA 2'-deoxyguanosine sensing domain (Mesoplasma florum)	ITC	pH 6.8, 30 °C, KCl 100 mM	379	Nc1nc2c(ncn2[C@H]2C[C@H](O)[C@@H](COP(=O)(O)O)O2)c(=O)[nH]1
T11, SNCA 5' UTR IRE RNA A-bulge hairpin (Homo sapiens)	MST		0.066	O=C(CSc1nnc(-c2ccncc2)n1-c1ccc(Br)cc1)Nc1ccc2cn[nH]c2c1

Excerpt of the above:
target	assay	setting	Kd [µM]	SMILES
T7, DNA aptamer, structure-switching	1H NMR titration	500 µM, pH 6.8, 5 °C, KCl 245 mM, apparent	1700	c1ccc([C@H]2CN3CCSC3=N2)cc1
T8, RNA G4, bulged parallel (Homo sapiens)	microscale thermophoresis	pH 7.5, 25 °C, KCl 150 mM, MgCl2 1 mM	0.171	CCN(CC)c1ccc2cc(/C=C/c3ccc4cc(F)c(N5CCN(C)CC5)cc4[n+]3C)c(=O)oc2c1
